Literature values that unrelated publications cite.
Each numbered part shows a few of the values that one paper quotes.
Sequence of UniProt P08913 (whole entry, looked up): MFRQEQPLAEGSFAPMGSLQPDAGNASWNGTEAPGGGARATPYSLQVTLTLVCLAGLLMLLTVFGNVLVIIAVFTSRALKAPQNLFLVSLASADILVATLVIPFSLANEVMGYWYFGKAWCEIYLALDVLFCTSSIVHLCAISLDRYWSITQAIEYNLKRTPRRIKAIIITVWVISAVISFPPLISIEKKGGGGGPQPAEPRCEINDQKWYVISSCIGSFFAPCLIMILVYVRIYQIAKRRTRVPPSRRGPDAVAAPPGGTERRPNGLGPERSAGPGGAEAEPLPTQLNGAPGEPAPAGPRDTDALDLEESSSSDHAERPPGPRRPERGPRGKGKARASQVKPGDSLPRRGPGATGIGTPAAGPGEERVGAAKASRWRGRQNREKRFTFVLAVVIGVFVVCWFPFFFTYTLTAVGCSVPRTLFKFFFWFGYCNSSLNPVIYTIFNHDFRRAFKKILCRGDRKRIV
Sequence of UniProt P11229 (whole entry, looked up): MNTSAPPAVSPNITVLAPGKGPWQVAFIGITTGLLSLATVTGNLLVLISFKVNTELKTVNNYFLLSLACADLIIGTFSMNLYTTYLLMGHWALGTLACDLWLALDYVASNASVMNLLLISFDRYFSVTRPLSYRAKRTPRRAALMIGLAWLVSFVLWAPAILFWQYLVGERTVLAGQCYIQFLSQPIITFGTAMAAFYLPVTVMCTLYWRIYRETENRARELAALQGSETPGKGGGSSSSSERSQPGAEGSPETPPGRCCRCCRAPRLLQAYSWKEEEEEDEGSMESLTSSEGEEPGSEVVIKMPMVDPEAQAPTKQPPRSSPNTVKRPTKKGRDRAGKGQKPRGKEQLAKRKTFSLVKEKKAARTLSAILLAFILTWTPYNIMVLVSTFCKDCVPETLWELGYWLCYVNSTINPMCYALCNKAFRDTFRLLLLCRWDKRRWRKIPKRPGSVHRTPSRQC

Study 1
Organism: Toxoplasma gondii
Read-out: parasite growth
Tested at: concentration not given
Notes: drug repurposing screen
`Cc1c(OCC(F)(F)F)ccnc1C[S+]([O-])c1nc2ccccc2[nH]1` (stereo not drawn) — result for activity class: “inactive”.
`CC(C)NCC(O)COc1cccc2ccccc12.Cl` (stereo not drawn): activity class “inactive”.
Under activity class, `CCN1CCCC1CNC(=O)c1cc(S(=O)(=O)CC)c(N)cc1OC` (stereo not drawn) is recorded as “inactive”.
Under activity class, `OCCN(CCO)c1nc(N2CCCCC2)c2nc(N(CCO)CCO)nc(N3CCCCC3)c2n1` is recorded as “inactive”.
For `CCOC(=O)[C@H](CCc1ccccc1)N[C@H]1CCc2ccccc2N(CC(=O)O)C1=O`, activity class read “inactive”.

Single results of other studies
The IC50 of `c1ccc(C2CCN(c3cnc4c(N5CCOCC5)nccn34)CC2)cc1` is reported as over 10000 nM (PDE10A (human); enzyme activity).
For `CCCCCCCCNC(C)C(O)c1ccc(SC(C)C)cc1` (stereo not drawn), the fold change was 2 (MCF7; microarray, Connectivity Map, refers to: INSIG1 mRNA; concentration not given, 6 h; baseline: DMSO).
For `COCCOc1nc(-c2ccc(Cl)nc2)nc2c1CN(C(=O)c1ncn3ccccc13)CC2`, the IC50 was 49 nM (PDE10A (human); cellular activity).
`COC(=O)[C@@H]1[C@H]2C[C@H]3c4[nH]c5ccccc5c4CCN3C[C@@H]2CC[C@@H]1O` has a Hill coefficient of 0.9 (ADRA2A (Homo sapiens, UniProt P08913); binding).
For `Cc1cc2c(-c3ccco3)cnc(N[C@@H]3CCN(C)C[C@H]3C(=O)NC3CCCCC3)c2[nH]c1=O`, the IC50 was 125 nM (BET BD1 domain (human); cell-based).
`C[N+]1(C)CCC(OC(=O)C(c2ccccc2)c2ccccc2)CC1.[I-]` has a Hill coefficient of 1 (CHRM1 (Homo sapiens, UniProt P11229); binding).
The IC50 of `CCC(=O)N[C@H]1CC[C@@H](C(=O)N(C)c2ccc(-c3nc4ccccc4o3)cc2)C1` is reported as 79 nM (FASN; biochemical activity).

Some of these lines once more (study 1):
Under activity class, `CCN1CCCC1CNC(=O)c1cc(S(=O)(=O)CC)c(N)cc1OC` (stereo not drawn) is recorded as “inactive”.
